Results gathered from unrelated publications.
Compare with care: the assays were run in different laboratories.

| SMILES | organism | test | system | conditions | IC50 |
| --- | --- | --- | --- | --- | --- |
| Cc1ncc([N+](=O)[O-])n1CCOCc1nnc(SCC(=O)c2ccc(Cl)cc2)o1 | Giardia duodenalis | parasite growth |  |  | 2.15 µM |
| Cc1cc(N2CCC(C#N)(C3(C)CC3)C2=O)cc(C(=O)NCc2cc(F)cc(-c3cnn(C)c3)c2)n1 (racemic) | Plasmodium falciparum | parasite growth, [3H]hypoxanthine incorporation | Dd2 | 72 h | 0.024 µM |
| CCOC(=O)C(CC)NC(=O)CN1C(=O)S/C(=C\c2ccc([N+](=O)[O-])cc2)C1=O (stereo not drawn) | Leishmania major | parasite growth, resazurin |  | promastigote | > 100 µM |
| Cc1cc2[nH]c(C(=O)Nc3ccccc3)c(CN3CCCCC3)c2s1 | Giardia duodenalis | parasite growth |  | 48 h | > 10 µM |
| CCOC(=O)C(NC(=O)CN1C(=O)/C(=C/c2ccc([N+](=O)[O-])cc2)SC1=S)C(C)C (stereo not drawn) | Leishmania major | parasite growth |  | 24 h, intracellular, amastigote | > 10 µM |
| Cc1cc2[nH]c(C(=O)NCc3cc(F)cc(F)c3)c(CN3CCOCC3)c2s1 | Giardia duodenalis | parasite growth |  | 48 h | > 10 µM |
| Cc1ncc([N+](=O)[O-])n1CCOCc1nnc(SCC(=O)c2ccc([N+](=O)[O-])cc2)o1 | Giardia duodenalis | parasite growth |  |  | 11.2 µM |
| Cc1cc2[nH]c(C(=O)NC3CCCC3)c(CN3CCCCC3)c2s1 | Giardia duodenalis | parasite growth |  | 48 h | > 10 µM |
| Cc1ncc([N+](=O)[O-])n1CCOCc1nnc(SCC(=O)c2ccc(F)cc2)o1 | Giardia duodenalis | parasite growth |  |  | 1.31 µM |
| CCOC(=O)C(CC)NC(=O)CN1C(=O)S/C(=C\c2ccc(OC)cc2)C1=O (stereo not drawn) | Leishmania major | parasite growth |  | 24 h, intracellular, amastigote | > 10 µM |
| Cc1cc2[nH]c(C(=O)NCCN(C)C)c(CN3CCCCC3)c2s1 | Giardia duodenalis | parasite growth |  | 48 h | > 10 µM |
| CCOC(=O)CNC(=O)CN1C(=O)S/C(=C\c2ccc(C)cc2)C1=O | Leishmania major | parasite growth, resazurin |  | promastigote | > 100 µM |
| Cc1cc2[nH]c(C(=O)Nc3cc(F)ccc3Cl)c(CN(C)C)c2s1 | Giardia duodenalis | parasite growth |  |  | ≤ 10 µM |
| CCOC(=O)C(NC(=O)CN1C(=O)/C(=C/c2ccc3c(c2)OCO3)SC1=S)C(C)C (stereo not drawn) | Leishmania major | parasite growth |  | 72 h, intracellular, amastigote | > 10 µM |
| O=C1Nc2ccc(Cl)cc2C1=Cc1ccc(-c2cccc(C(=O)NCC3CCNCC3)c2)o1 (mixture of isomers) | Trichuris muris | adult worm motility |  | 24 h | 41.5 µM |

For quick reference, copied from above:
| SMILES | organism | test | system | conditions | IC50 |
| --- | --- | --- | --- | --- | --- |
| CCOC(=O)C(NC(=O)CN1C(=O)/C(=C/c2ccc([N+](=O)[O-])cc2)SC1=S)C(C)C (stereo not drawn) | Leishmania major | parasite growth |  | 24 h, intracellular, amastigote | > 10 µM |
